Experimental data of several laboratories.
A part holds a random share of what one study measured. Positions count from the first letter of the parent shown.

Block 1 — method: RNAcompete; form: RNA; matrix: in vitro; tested at: 20 nM; setting: 7-mer, probes averaged, single round; reference: mean of 7-mers; direction: higher = stronger binding
Target: PABPC1L2, full length, GST fusion (mouse, UniProt A0ABA7IW68)
Construct (chain): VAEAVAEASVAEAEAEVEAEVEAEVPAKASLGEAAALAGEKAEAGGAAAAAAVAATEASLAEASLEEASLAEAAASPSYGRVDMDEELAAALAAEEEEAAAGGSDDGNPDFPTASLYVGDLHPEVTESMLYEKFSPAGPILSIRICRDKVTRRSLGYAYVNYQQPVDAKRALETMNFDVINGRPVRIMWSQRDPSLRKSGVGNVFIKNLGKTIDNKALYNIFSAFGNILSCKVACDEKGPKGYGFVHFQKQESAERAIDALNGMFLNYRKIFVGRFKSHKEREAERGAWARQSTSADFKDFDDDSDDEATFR
Oligonucleotide | 7-mer Z-score
UGCUUUA | -0.0355
UCAGAAA | 1.68
GAACUCA | -0.103
GGGCAGG | 0.494
CAGACCU | -0.0754
AAAUGAG | 1.15
ACUGGCC | -0.175
GCUUUCG | -0.36
GUCUGAC | -0.344
AUUCCAG | -0.0174
CAUGCUC | -0.295
CCCUCCU | -0.449
CUCUAGC | -0.277
GCGACCC | 0.000733
CGAGGAA | 0.318
GGUGAGA | -0.00833
UUGCCCU | -0.387
GCUCCAG | -0.262

Block 2 — method: DHFR PCA, deep sequencing; matrix: yeast; added: (+)-ABA 4.8 µM; reference: wild-type fitted maximum; direction: higher = stronger binding
Target: ABI1, truncated, D143A, DHFR fusion (Arabidopsis thaliana)
Setting: methotrexate growth selection, single substitutions
Parent: PYL1, truncated, DHFR fusion (Arabidopsis thaliana); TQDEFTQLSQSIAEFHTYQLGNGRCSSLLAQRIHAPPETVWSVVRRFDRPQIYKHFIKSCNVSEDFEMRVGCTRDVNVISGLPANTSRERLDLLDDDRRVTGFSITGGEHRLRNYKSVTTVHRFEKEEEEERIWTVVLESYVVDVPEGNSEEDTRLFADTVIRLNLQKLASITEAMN
Substitution | relative binding score [%]
E67K | 70.4
V78T | 38.7
P146R | 4.89
Q2N | 69.9
C60N | -5.39
D48Y | 0.584
F103G | -6.12
R46C | 49.1
R45Y | -5.54
V70Y | -5.45
C25H | -2.78
R69V | 75.3

Block 3 — target: MAFK, bZIP domain (human); method: DHFR protein complementation; matrix: yeast; reference: wild-type JUN-FOS pair; direction: higher = stronger binding
Setting: single substitutions, most at no-binding floor
Parent: JUN, bZIP domain (human); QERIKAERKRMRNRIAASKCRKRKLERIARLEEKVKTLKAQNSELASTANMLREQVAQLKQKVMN; partner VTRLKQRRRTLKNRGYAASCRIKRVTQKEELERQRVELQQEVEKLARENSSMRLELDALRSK
Substitution | binding fitness [natural log]
T48M | -1.42
A49T | -1.54
L38W | -1.52
K36N | -1.44
S47T | -1.41
I28R | -1.49
E44G | -1.5
E44I | -1.41
S43V | -1.41
K39P | -1.5
K36H | -1.5
S47Q | -1.44
K39D | -1.49
L31R | -1.52
Q55W | -1.54
Q55L | -1.45
T48N | -1.51
T48W | -1.43
L52Q | -1.51
K36F | -1.56
A57P | -1.5
L45Q | -1.49
R30A | -1.46

Block 4 — method: universal PBM; form: double-stranded DNA, one strand shown; matrix: in vitro; tested at: 600 nM; direction: higher = stronger binding
Target: Sal-like protein 4, full length isoform A (SALL4, Homo sapiens, UniProt Q9UJQ4, residues 1-1053)
Sequence of UniProt Q9UJQ4 (whole entry, looked up): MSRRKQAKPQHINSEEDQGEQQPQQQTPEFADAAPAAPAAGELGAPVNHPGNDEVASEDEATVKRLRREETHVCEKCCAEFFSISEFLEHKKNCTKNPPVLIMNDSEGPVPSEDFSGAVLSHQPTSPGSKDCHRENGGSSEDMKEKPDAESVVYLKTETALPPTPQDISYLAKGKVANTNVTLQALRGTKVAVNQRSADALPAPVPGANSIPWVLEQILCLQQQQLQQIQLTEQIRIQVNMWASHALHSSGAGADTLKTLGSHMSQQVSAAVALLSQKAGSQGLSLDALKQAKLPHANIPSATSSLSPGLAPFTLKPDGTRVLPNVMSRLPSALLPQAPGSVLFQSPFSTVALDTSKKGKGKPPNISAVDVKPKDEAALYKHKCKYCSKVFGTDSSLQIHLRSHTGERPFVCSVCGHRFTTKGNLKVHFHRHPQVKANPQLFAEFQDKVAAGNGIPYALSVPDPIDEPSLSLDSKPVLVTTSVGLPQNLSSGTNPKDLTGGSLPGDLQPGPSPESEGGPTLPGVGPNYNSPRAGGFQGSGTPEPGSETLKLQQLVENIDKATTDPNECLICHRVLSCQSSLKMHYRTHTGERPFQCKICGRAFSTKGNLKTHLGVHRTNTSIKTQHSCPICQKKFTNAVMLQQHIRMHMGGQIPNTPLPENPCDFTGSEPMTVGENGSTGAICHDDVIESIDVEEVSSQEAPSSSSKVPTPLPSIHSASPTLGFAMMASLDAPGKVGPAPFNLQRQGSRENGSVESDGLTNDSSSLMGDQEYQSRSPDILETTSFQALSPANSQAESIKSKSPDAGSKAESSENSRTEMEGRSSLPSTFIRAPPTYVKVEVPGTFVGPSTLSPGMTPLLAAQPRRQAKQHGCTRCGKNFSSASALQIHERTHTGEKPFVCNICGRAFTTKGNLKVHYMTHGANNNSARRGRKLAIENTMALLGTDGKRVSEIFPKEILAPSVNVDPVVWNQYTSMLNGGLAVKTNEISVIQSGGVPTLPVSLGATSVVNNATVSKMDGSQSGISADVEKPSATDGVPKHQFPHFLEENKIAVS
Setting: 8-mer, flanks averaged, mean of replicates
Oligonucleotide | E-score
ACATGAGC | -0.0324
TCAGCTGA | 0.14
GGCCGGAA | -0.165
AATCTGAG | -0.0598
GCGCCTAC | -0.15
GGCCTTAC | -0.195
CCCAACCC | -0.181
GATTCGCA | -0.0134
CCAAATCA | 0.0524
ACCATAGT | 0.0898
CGGACGGC | -0.307
ACTAATAC | 0.218
ATGGAGAC | 0.0245
AGACTCGA | -0.0373
AAAATCAA | 0.28
AGTTTCCA | 0.189

Block 5 — method: RNA Bind-n-Seq; form: RNA; matrix: in vitro; tested at: 365 nM; reference: no-protein control; direction: higher = stronger binding
Target: RNA binding protein fox-1 homolog 2, RRM domain, GST-SBP tag (RBFOX2, Homo sapiens, UniProt O43251-10, residues 100-194)
Setting: natural RNA segment, single round, ends assumed
Construct (chain): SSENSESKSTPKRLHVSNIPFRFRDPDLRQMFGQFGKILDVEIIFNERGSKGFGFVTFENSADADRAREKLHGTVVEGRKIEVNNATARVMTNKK
Oligonucleotide | RBNS enrichment (R)
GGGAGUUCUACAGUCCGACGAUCCAUUUCCUGAACCCAUGUCUUUUGGGGGUACAGCUUGUCAUCCAGCAGGAAUUAUUGAGCGAGCAGGACUGGAGGAGACGGGAAUGAAGACACAAGAGUGACAUCUGAUCUGGAAUUCUCGGGUGCCAA | 0.648
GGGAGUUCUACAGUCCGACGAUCUACAGACUCUCUGCUCUGUAUGGCGCCGCCUGCCAUGUCUGUCUUGGUGACUAUCCUGCCUUAAUCACUUUGCUUUAGGGCAACUCAUGGUGAUCUCUUCCAAGAUCUGUUGGAAUUCUCGGGUGCCAA | 0.281
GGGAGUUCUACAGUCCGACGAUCAGAGCAUACUUAUUGGGCUGUGAAGGCAUACGGAUGUACAUGUUUUAGAGCUUAUCUCAGAUUUAAAUAGCCAAAGGAAGACCUCAUUGCCUUCCAGGUGAAGGUGCAAAUGGAAUUCUCGGGUGCCAA | 0.674
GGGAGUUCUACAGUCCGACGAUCCCAGACAACUGCCAACGUCACUGAGGGCCCUGCUCUGAAGCCCUGGGCCCUGGCUCCAUUAACCUAAAUGUAGCUCCUUAGCGCUAAUCUAGGAACCGCCGCUGCCUGCUUGGAAUUCUCGGGUGCCAA | 0.348
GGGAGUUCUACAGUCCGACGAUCCUGUUGUGAAUGCCCAGUUGUAUUUUUAUAAGGUUGUAUAUAUGGGGAAAAAAAGUAUCGGUGAGUUUUAAAUGAAAGCACAUAUUACUGCCAGCGUGGAGAGAGGAAGAUGGAAUUCUCGGGUGCCAA | 1.91
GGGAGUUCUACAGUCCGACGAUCUGGGGCAGCUUCUGGCAUCUUCCCAGGCCCCCUUUCCCAGCCGGGUGUGGAGCUAGGUAGGCUAGGGUCUGUUUCACCAGGAAUCUCUCCUGAGGCCCAGUGGCAGCCUCUGGAAUUCUCGGGUGCCAA | 0.356
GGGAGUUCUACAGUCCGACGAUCAUGUGUCAAAAAUUAUUUCACUUGUAUGUGACUAUUAUCUUAACUUGUAACAAUUUAUGUUUUACAGUUCCUUUUACAAAGUGUAUUUUUACUCCAGUGUGUCUUGGCUUUGGAAUUCUCGGGUGCCAA | 0.34
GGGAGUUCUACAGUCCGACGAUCCUCAAAAUAUCAUGUUAAAUUAGAAUUUAUCUUUACCAAAAACCAUGUUGCUUUCAGAGAGGUCAACAUUAAAAUACUGAGACAGGACAGAAUGUGUUCUUUGUCCUUUUUGGAAUUCUCGGGUGCCAA | 0.56
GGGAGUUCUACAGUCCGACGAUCUAAAAGUAGCUGCCCUCUUUGAUCCUUUCUUACUAGGCUUCAUGUGGGAUGGGAGAGGAUGUCCCCAGGAUGGGGACAGAGGAAGCCCUGCUAGGGUCUCCUAGCCCAGUUGGAAUUCUCGGGUGCCAA | 0.381
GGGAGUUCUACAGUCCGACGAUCUGUUCUUCCGUUUGCUGCAACGAUGUCCUUGGAAAAAGAUAGAAUGGAAAUUAUUUUUCCAAAAUAAAGGAGAUAAAGUGCCAUCCCAAAACACACAGAUAUUAUUAGAGUGGAAUUCUCGGGUGCCAA | 1.64
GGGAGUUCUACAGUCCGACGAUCCUGGUGGUUCUUCUGUUCUCAAGCCUUUCAGGUGAGGACACAUGGCCUGGUGAUGCAGCUGGCUGGACCAGGCUCCCCCACAGCCUACUCCCAAGGGCUGGCUGCUUCUGUGGAAUUCUCGGGUGCCAA | 0.355
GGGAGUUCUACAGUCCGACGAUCUUUAUACUGUUCACUGUACAAAAGCUUACAGUUUUCCACAAGGACUUUAAUAACUAGCUGGGGAAAAGAUUAUGUAAUUACUUGGGGCUCUGCAGGACCUUCUCUGUCCAUGGAAUUCUCGGGUGCCAA | 0.45

Block 6 — target: CCND2, cyclin fold, Cln2 fusion (human); method: yeast growth competition, sequencing; matrix: yeast; setting: weak parent motif; reference: not given; direction: higher = stronger binding
Parent: PPP1R3F docking peptide (human); VAPRRVLFADEAL
Substitution | normalised enrichment score
VAPRRVAFADEAL [L7A] | -0.194
VAPRKVLFADEAL [R5K] | -0.178
VAPRRVLFADEAA [L13A] | -0.211
VAPRRVLFADAAL [E11A] | 0.313
VAARRVLFADEAL [P3A] | 0.239
VAPRRALFADEAL [V6A] | -0.00333

Block 7 — method: protein-binding microarray; form: double-stranded DNA, one strand shown; matrix: in vitro; tested at: 250 nM; setting: 60-bp whole probe; added: salmon DNA 0.4 mg/ml; reference: random background probes; direction: higher = stronger binding; shared flanks, not repeated: GCCTAGCAC … GTCTTGATTCGCTTGACGCTGCTG
Target: Interferon regulatory factor 5, full length, phosphomimetic (IRF5, Homo sapiens, UniProt Q13568-2, residues 1-514, K96S/S451D/S453D/S456D/S462D)
Oligonucleotide | log fluorescence [z-score]
GAAGTTCTTTTTTTCAAGAAGTGCTAG | 0.479
GTCAGTTTTGAGCTCTGTCTGTGCTAG | 0.146
GCCCCTTTCCTTTGCCTCTGGTGCTAG | 0.534
TTAGGTCTCGGAGTGGGTTAGTGCTAG | -0.148
GACGATTTCAATTCCGAGACGTGCTAG | 0.812
GATGTTTTAGGTCCCTTTTCGTGCTAG | 0.527
GACGGTTCCCTTTTCCTGAAGTGCTAG | 0.291
TCATAAAATGGACACTGTACTGTGCTA | 0.635
ATAACTTTTTTTTTTCCCTGGTGCTAG | 0.785
GACGGTTTCGGGACTTGGGACGTGCTA | 4.21
TTAGGTATCGCTATCGGTTAGTGCTAG | 8.26
TACTATATGCATGTAAATAAGTGCTAG | 0.502
TCACACATTTTTTTCATACTGTGCTAG | 1.14
GACGGACCGGGGTATCGGGACGTGCTA | -0.172
GTAGTAATGAATATAATACCGTGCTAG | 0.418
TTAGGACCGCTTATCCTTTAGTGCTAG | -0.197
TCACTCTTCTTTTTTTTACTGTGCTAG | 1.38
GACGATCTCAGATTGGAGACGTGCTAG | -0.382
TTAGGACTGGGTTTCGGCTAGTGCTAG | 3.7
ATAGGTATCGGGTATCGGTTAGTGCTA | 6.73
ATGCATGTAAATAATCAGACAGTGCTA | 0.417

Repeated from above (block 1):
Oligonucleotide | 7-mer Z-score
GGGCAGG | 0.494
CAGACCU | -0.0754
AAAUGAG | 1.15
ACUGGCC | -0.175
GCUUUCG | -0.36
GUCUGAC | -0.344
AUUCCAG | -0.0174
CAUGCUC | -0.295
CCCUCCU | -0.449
CUCUAGC | -0.277
